Assay results from different studies.
Every numbered part comes from another study and shows a few of its results, in no order.
Sequence of UniProt Q13283 (whole entry, looked up): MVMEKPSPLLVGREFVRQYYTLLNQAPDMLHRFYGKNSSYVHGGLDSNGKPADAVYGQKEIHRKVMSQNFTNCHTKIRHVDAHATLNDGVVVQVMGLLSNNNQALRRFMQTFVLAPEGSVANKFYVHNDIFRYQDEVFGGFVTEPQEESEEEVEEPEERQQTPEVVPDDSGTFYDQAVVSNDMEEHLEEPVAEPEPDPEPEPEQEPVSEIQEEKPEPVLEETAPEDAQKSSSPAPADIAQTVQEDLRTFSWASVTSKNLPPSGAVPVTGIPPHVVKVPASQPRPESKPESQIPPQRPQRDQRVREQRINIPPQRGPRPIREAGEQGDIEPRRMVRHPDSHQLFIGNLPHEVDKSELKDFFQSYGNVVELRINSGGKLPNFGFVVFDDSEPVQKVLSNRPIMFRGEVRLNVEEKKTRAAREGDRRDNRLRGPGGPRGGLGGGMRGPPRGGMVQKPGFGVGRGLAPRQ

Series 1
Target: Histone acetyltransferase KAT6A, both winged helices, GST fusion (KAT6A, Homo sapiens, UniProt Q92794, residues 1-181)
Method: protein binding microarray
Molecule type: double-stranded DNA, one strand shown
Medium: in vitro
Tested at: not given
Setting: 8-mer, flanks averaged, mean of 2 arrays, mostly near background
Relative to: not given
Direction: higher = stronger binding
Residues (chain): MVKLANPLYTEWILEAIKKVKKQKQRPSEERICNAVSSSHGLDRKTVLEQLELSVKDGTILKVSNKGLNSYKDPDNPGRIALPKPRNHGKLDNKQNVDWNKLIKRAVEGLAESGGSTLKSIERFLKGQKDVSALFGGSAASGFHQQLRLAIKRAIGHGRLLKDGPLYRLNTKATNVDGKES
Strand	E-score
CCGACCTA	0.0347
ATCCTGAG	-0.0584
ACGGATCC	0.204
CAACGAAG	-0.077

Series 2
Target: Interferon regulatory factor 7, full length, phosphomimetic (IRF7, Homo sapiens, UniProt Q92985, residues 1-503, S101K/S471D/S472D/S475D/S476D/S477D/S483D/S484D/S487D)
Method: protein-binding microarray
Molecule type: double-stranded DNA, one strand shown
Medium: in vitro
Tested at: 250 nM
Setting: 60-bp whole probe
Together with: salmon DNA 0.4 mg/ml
Relative to: random background probes
Direction: higher = stronger binding
Residues (chain): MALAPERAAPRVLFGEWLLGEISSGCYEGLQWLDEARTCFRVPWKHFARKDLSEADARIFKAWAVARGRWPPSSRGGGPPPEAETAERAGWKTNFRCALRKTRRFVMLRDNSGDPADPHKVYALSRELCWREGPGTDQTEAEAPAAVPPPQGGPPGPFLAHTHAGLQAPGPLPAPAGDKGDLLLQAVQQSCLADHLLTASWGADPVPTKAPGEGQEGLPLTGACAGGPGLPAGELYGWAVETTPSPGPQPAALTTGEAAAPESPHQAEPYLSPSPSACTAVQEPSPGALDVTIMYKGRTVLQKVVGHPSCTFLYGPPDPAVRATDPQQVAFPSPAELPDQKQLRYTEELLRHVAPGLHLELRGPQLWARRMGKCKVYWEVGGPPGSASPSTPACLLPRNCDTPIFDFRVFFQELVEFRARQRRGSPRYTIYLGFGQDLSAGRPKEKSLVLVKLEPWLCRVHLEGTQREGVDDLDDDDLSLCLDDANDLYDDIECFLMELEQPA
Strand	log fluorescence
GCCTAGCACTTAGATCTCAGTATCGTTTAGTGCTAGGTCTTGATTCGCTTGACGCTGCTG	1.23 z-score
GCCTAGCACCTGAGGCTGTGTTTTCACTTTGTGCTAGTCTTGATTCGCTTGACGCTGCTG	-0.15 z-score
GCCTAGCACCAGCCTCTGAGCAGCTCGGCGTGCTAGGTCTTGATTCGCTTGACGCTGCTG	-0.603 z-score

Further values, each from its own experiment
Substance	target	test	system	setting	scale	endpoint	result
GGGAGUUCUACAGUCCGACGAUCUCCUGUGCUACACAUCGUAUGUACCGAAUCAAAUUUUUUUAAACCCCCAAACCCCCAAAAAAGUAUUAUGUUACGCCGUUCGGAUCUGCAUGGAAUUCUCGGGUGUCAAGG (7-deaza-guanosine replaces G)	Ras GTPase-activating protein-binding protein 1, full length (G3BP1, Homo sapiens, UniProt Q13283)	RNA Bind-n-Seq	RNA, in vitro	200 nM, whole 134-nt RNA, ends assumed, together with: 150 mM LiCl	relative to: input library, higher = stronger binding	log2 enrichment	0.954
PhoQ, residues 284 288 289 292 302 303 SQSLSM	PhoP, residues 12 14 15 18 19 LWHVM (Escherichia coli, UniProt P23836)	Sort-seq, refers to: YFP reporter	E. coli	PhoQ-PhoP variant library, together with: 10 µM Mg2+	relative to: high Mg2+ state, higher = stronger signaling	fold induction	8.48
GGGAGUUCUACAGUCCGACGAUCUGGGAGGUGGAUUUUGUUUAUUUUUUUUGCUCAUUUCCAGGGGUGGGAAUUUUUUUUUAAUAUGUGUCAUGAAUAAAGUUGUUUUUGAAAUGGAAUUCUCGGGUGUCAAGG	Ras GTPase-activating protein-binding protein 1, C-terminal RGG region (G3BP1, Homo sapiens, UniProt Q13283)	RNA Bind-n-Seq	RNA, in vitro	1 µM, whole 134-nt RNA, ends assumed, together with: 150 mM KCl	relative to: input library, higher = stronger binding	log2 enrichment	3.33
